Measured values of several laboratories.
Protocols differ between the studies behind these lines. ± gives the spread as reported.

| SMILES | assay | test system | setting | scale | Tmax [h] |
| --- | --- | --- | --- | --- | --- |
| Cc1cccc(Cn2nc(C3CC3)c3c(NC(=O)c4cnc5cc(OCCN6CCN(C)CC6)ccn45)cccc32)n1 | – | human patients Overall, plasma | oral, 300 mg, cycle 2 day 1, median | – | 2 |
| Cc1ccc(C(=O)N2CCOC[C@H]2Cc2cccc(-n3nccn3)c2)c(-n2nccn2)c1 | – | healthy human, plasma | oral, 100 mg initial dose, day 8 | – | 3 |
| Cc1ccc(NC(=O)c2ccc(CN3CCN(C)CC3)cc2)cc1Nc1nccc(-c2cncc(-c3oncc3C)c2)n1 | – | older healthy human adults, plasma | oral, 75.0 mg single dose, fed, mean | – | 5 |
| CC(O)c1cc(C(=O)N[C@@H](C)Cn2ccc(-c3ccc(C#N)c(Cl)c3)n2)[nH]n1 (stereo partly shown) | – | human, male, plasma | oral, 600 mg twice daily, day 7, with food, multiple doses | – | ~4 |
| COCCCCn1c(C(=O)N(CC(C)C)[C@@H]2CNC[C@H](C(=O)N3CCOCC3)C2)nc2ccccc21 | – | non-elderly human, plasma | oral, 160 mg once daily, day 1 | – | 1 |
| O=C(Cc1cccc(OC(F)(F)F)c1)Nc1ccc(CCCCc2nnc(NC(=O)Cc3ccccn3)s2)nn1 | – | human patients, plasma | oral, 150 mg three times daily fasted, cycle 1 day 15 steady state | – | 1 |
| CCn1c(=O)c2c(nc(/C=C/c3ccc(OC)c(OC)c3)n2C)n(CC)c1=O | – | healthy human, plasma | oral, 40 mg single dose, median, with: rifampin 600 mg/day steady state | – | 1.9 |
| CCOc1ccc(Cc2cc([C@]34OC[C@](CO)(O3)[C@@H](O)[C@H](O)[C@H]4O)ccc2Cl)cc1 | – | healthy human, plasma | oral, 15 mg, 20% glucose solution, with: glimepiride 1 mg | – | 2 |
| CC(=O)c1c(C)c2cnc(Nc3ccc(N4CCNCC4)cn3)nc2n(C2CCCC2)c1=O | – | human | oral, 95 mg/m^2 repeated doses, day 21 | – | 6 ± 3 |
| CCCCCCCOc1ccc(CCC(N)(CO)CO)cc1C(F)(F)F.Cl | – | healthy human males, plasma | oral, 0.125 to 0.75 mg, day 21, median across doses | – | 6 to 10 |
| CC(C)NC[C@@H](C(=O)N1CCN(c2ncnc3c2[C@H](C)C[C@H]3O)CC1)c1ccc(Cl)cc1 | – | human, Severe hepatic function (Child-Pugh), plasma | oral, 100 mg single dose, median | – | 1 |
| CCCOc1ccc([C@H]2CNC(=O)N2c2ccc3[nH]cnc3c2)cc1 | – | human, elderly, fasted, plasma | oral, 500 mg twice daily, tablet, day 11, median | – | 0.5 |
| N[C@]1(C(=O)O)[C@H]2[C@@H](C[C@@H]1F)[C@@H]2C(=O)O | – | human, both sexes, fed, plasma | oral, 10 mg, day 14, multiple ascending dose | – | 2.5 |
| CCOc1ccc(Cc2cc([C@@H]3S[C@H](CO)[C@@H](O)[C@H](O)[C@H]3O)c(OC)cc2C)cc1 | – | human, plasma | oral, 10 mg/day, day 7, multiple dose before breakfast | – | 0.563 ± 0.177 |
| CCS(=O)(=O)N1CC(CC#N)(n2cc(-c3ncnc4[nH]ccc34)cn2)C1 | – | healthy Chinese human, plasma | oral, 2 to 10 mg | – | 0.5 to 1 |
| C=CC[C@@H]1/C=C(\C)C[C@H](C)C[C@H](OC)[C@H]2O[C@@](O)(C(=O)C(=O)N3CCCC[C@H]3C(=O)O[C@H](/C(C)=C/[C@@H]3CC[C@@H](O)[C@H](OC)C3)[C@H](C)[C@@H](O)CC1=O)[C@H](C)C[C@@H]2OC | – | healthy human subjects, whole blood | oral, 5 mg single dose, median, with: isavuconazole 200 mg once daily after loading | – | 3 |
| C[C@@H](Nc1cc(F)cc(F)c1)c1cc(C(=O)N(C)C)cc2c(=O)cc(N3CCOCC3)oc12 | – | human, plasma | oral, single dose, median | – | 1.2 to 4.1 |
| Cn1cncc1[C@@](N)(c1ccc(Cl)cc1)c1ccc2c(c1)c(-c1cccc(Cl)c1)cc(=O)n2C | – | human, plasma | oral, 1200 mg, day 1 | – | 2 |
| COc1ccnc(C[S+]([O-])c2nc3ccc(OC(F)F)cc3[nH]2)c1OC (stereo not shown) | HPLC | human CYP2C19 poor metabolizers, plasma | oral, 40 mg/day, day 5, esomeprazole | – | 1.67 ± 0.57 |

| SMILES | assay | test system | setting | scale | Tmax [h] |
| --- | --- | --- | --- | --- | --- |
| CNc1nc(Nc2ccc(-n3cnc(C)n3)c(OC)c2)nc2c1CC[C@H]2c1ccc(F)cc1 | – | human | oral, 50 mg once daily, day 28, multiple ascending dose, median | – | 5 |
| CC(C)(C)OC[C@@H]1C(=O)NCCN1C(=O)C[C@H](N)Cc1cc(F)c(F)cc1F | – | human | 10 mg once daily, day 10, steady state, median | – | 5 |
| CC(C)c1nc(CN(C)C(=O)N[C@H](C(=O)N[C@@H](Cc2ccccc2)C[C@H](O)[C@H](Cc2ccccc2)NC(=O)OCc2cncs2)C(C)C)cs1 | – | human, HIV+/HCV+ with cirrhosis, plasma | oral, total drug, steady state, median, with: lopinavir/ritonavir twice daily | – | 5 |
| O=C([O-])CCCCCCCNC(=O)c1ccccc1O.[Na+] | – | human, mild hepatic impairment, plasma | oral, once daily, day 10, after dose 10, median | – | 0.5 |
| COc1ccnc(C[S+]([O-])c2nc3ccc(OC(F)F)cc3[nH]2)c1OC (stereo not shown) | – | human, obese children with GERD, plasma | oral, 1.2 mg/kg lean body weight, age 12-17 y, single dose | median | 2.5 |
| O=C1O[C@H]([C@@H](O)CO)C(O)=C1O | item: vitamin C | healthy human males, fasting, plasma | oral, 150 mg | – | 3 to 3.5 |
| COc1ccc2nc([S@@+]([O-])Cc3ncc(C)c(OC)c3C)[nH]c2c1 | HPLC | human CYP2C19 normal metabolizers, plasma | oral, 40 mg/day, day 5, pantoprazole | – | 1.86 ± 1.07 |
| Cn1ncc(Cl)c1-c1cc(C(=O)N[C@H](CN)Cc2ccc(F)c(F)c2)oc1Cl | – | human patients, plasma | oral, 10 mg once daily, day 8, repeat dose | – | 2 |
| C#C[C@]1(CO)O[C@@H](n2cnc3c(N)nc(F)nc32)C[C@@H]1O | – | human, plasma | oral, 100 mg once weekly, week 1 | – | 2 |
| COc1cccc(-c2ccc(NC(=O)C3=C(C(=O)O)CCC3)c(F)c2)c1 | – | healthy male humans, plasma | oral, 30 mg once daily, day 13, median | – | 3 |
| CCn1c(C(=O)c2cc(C)cc(C#N)c2)c(C(C)C)c(=O)[nH]c1=O | – | healthy humans, plasma | oral, 300 mg once daily, 7 days, median | – | 1.5 |
| O=C(Nc1ccc(OC(F)(F)Cl)cc1)c1cnc(N2CC[C@@H](O)C2)c(-c2ccn[nH]2)c1 | – | human, plasma | oral, 40 mg twice daily, steady state,, median, with: repaglinide | – | 1.99 |
| O=c1[nH]c(=O)c(Cc2cccc(C(F)(F)F)c2)c([C@H]2CC[C@H](c3ccccc3)CC2)[nH]1 | – | human, fasted, plasma | oral, 900 mg single dose, median | – | 4 |
| CCc1cc(/C(C)=N/OCc2ccc(C3CCCCC3)c(C(F)(F)F)c2)ccc1CN1CC(C(=O)O)C1 | – | healthy human, plasma | oral, 4 mg, median, with: fluconazole steady state | – | 4 |
| CC(C)c1nc(N(C)S(C)(=O)=O)nc(-c2ccc(F)cc2)c1/C=C/[C@@H](O)C[C@@H](O)CC(=O)O | – | human female, plasma | oral, 20 mg, given alone | – | 2.8 |
| CC(C)(Sc1ccncc1-c1ccc(C#N)c2ccccc12)C(=O)O | – | human, plasma | oral, dose not given, alone or with febuxostat | – | 3 to 4 |
| C[C@H]1C[C@@H]2[C@H]([C@@H](O)C[C@@]3(C)[C@H]2CC[C@]3(O)C(=O)CO)[C@@]2(C)C=CC(=O)C=C12 | item: total compound | human, plasma | oral, once daily, 32 mg, day 4, median | – | 2 |
| Cc1ccc(NC(=O)c2ccc(CN3CCNCC3)cc2)cc1Nc1nccc(-c2cccnc2)n1 | – | human patients, plasma | oral, 400 mg of imatinib, first dose, day 1 of cycle 1 | – | 2.3 |
